Experimental data gathered from unrelated publications.
Parts stem from different laboratories: compare values within a part only. Changes are numbered by the printed parent chain.

Block 1 — method: protein-binding microarray; form: double-stranded DNA, one strand shown; medium: in vitro; concentration: 250 nM; notes: 60-bp whole probe; with: salmon DNA 0.4 mg/ml; relative to: random background probes; reading: higher = stronger binding; measurement: log fluorescence; shared flanks, not repeated: GCCTAGCAC … GTCTTGATTCGCTTGACGCTGCTG
Target: Interferon regulatory factor 5, full length, phosphomimetic (IRF5, Homo sapiens, UniProt Q13568-2, residues 1-514, K96S/S451D/S453D/S456D/S462D)
GACGGTTTCAGTTTCGGGACGTGCTAG: 7.92 z-score
GACGGTCTCCTAATGCTGACGTGCTAG: -0.228 z-score
AGAAACTGTGAGGAGGGGAAGTGCTAG: 1.81 z-score
TTGCTTCTATAGGCTAGAATCGTGCTA: 0.374 z-score
GACGATCTCAGTATCTAGACGTGCTAG: 0.0373 z-score
TCATATGTCTGTTTTTGACTGTGCTAG: 0.494 z-score
GGCGGACTGGGGTTTCGGGACGTGCTA: 0.811 z-score
TTACGTTTCCTTTTCCTTTAGTGCTAG: 2.54 z-score
GACGGTATCGGGTATCGGAACGTGCTA: 3.6 z-score
TCAGGTCTCGCTTCATCACTGTGCTAG: 0.137 z-score
TTAGGTAGCGGTTTCGGTTAGTGCTAG: 8.02 z-score
GACAGACTGGACTTTCGGGACGTGCTA: 4.75 z-score
AGAAGATAAGCTGCAAGAAAGTGCTAG: 0.136 z-score
TCATGCTTTCATTTATTACTGTGCTAG: 2.89 z-score
TTAGGAATGGACACTGGGTTAGTGCTA: -0.336 z-score
ACTGCATTCCCTTTCTCAACGTGCTAG: 0.519 z-score
TGGGAAATTCCTCTGAATAGGTGCTAG: -0.256 z-score
GACGGACTGCTTTACCTGACGTGCTAG: -0.256 z-score
TTAGGACTCGGACTGGGTTAGTGCTAG: -0.392 z-score
TTAGGTTCACTTTTCCTTTAGTGCTAG: 0.88 z-score
GACGATTTCAGTATCGTGACGTGCTAG: 2.09 z-score
GACGGTTTCCTTTCCCTGAAGTGCTAG: 1.44 z-score
TTAGAACTGGGGTCTGGATTAGTGCTA: -0.323 z-score
GACGGTATGGGTATCGGGACGTGCTAG: 0.587 z-score
TTATGTTTCGACACTGGGTTAGTGCTA: 6.33 z-score

Block 2 — target: JDP2, bZIP domain (human); method: DHFR protein complementation; medium: yeast; relative to: wild-type JUN-FOS pair; reading: higher = stronger binding; measurement: binding fitness
Notes: single substitutions, most at no-binding floor
Starting sequence: JUN, bZIP domain (human); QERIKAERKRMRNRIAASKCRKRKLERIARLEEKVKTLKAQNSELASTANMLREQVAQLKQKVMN; partner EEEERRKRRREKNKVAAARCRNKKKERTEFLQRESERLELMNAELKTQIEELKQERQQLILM
L45E: -0.296 natural log
L45I: 0.0668 natural log
T37E: 0.308 natural log
L31D: 0.197 natural log
T48K: 0.262 natural log
A40H: 0.313 natural log
K36L: 0.277 natural log
A46S: 0.263 natural log
V35Y: 0.292 natural log
L38T: -0.000648 natural log
S43R: 0.323 natural log
E54G: 0.353 natural log
L52G: -0.906 natural log
A49R: 0.29 natural log
L45G: -0.384 natural log
I28A: 0.269 natural log
R30N: 0.243 natural log
K34L: 0.328 natural log
L59H: 0.0303 natural log
E54S: 0.173 natural log

Block 3 — method: protein binding microarray; form: double-stranded DNA, one strand shown; medium: in vitro; concentration: not given; relative to: not given; reading: higher = stronger binding; measurement: E-score
Target: Histone acetyltransferase KAT6A, both winged helices, GST fusion (KAT6A, Homo sapiens, UniProt Q92794, residues 1-181)
Notes: 8-mer, flanks averaged, mean of 2 arrays, mostly near background
Construct (chain): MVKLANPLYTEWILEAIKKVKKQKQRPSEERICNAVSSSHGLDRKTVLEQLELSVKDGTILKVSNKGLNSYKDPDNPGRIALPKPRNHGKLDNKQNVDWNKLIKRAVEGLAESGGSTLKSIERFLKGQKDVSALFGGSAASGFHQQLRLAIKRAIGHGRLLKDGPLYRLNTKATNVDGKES
AAGGTTAG: -0.155
AGATAAAT: -0.0988
ATGGATTC: -0.12
GCGGTTTA: 0.231
ACTGGTTA: -0.0875
AAGCACAT: -0.0143
GCGATGCC: 0.122
AGTCACTA: -0.104
CCTCAAAC: 0.0903
AGTGATAA: -0.0469
CTATCTGA: -0.149
CCCTAAGA: -0.215
AACCATCG: -0.0271
ACAGTGCC: -0.0684
TAGGGACA: -0.0533
TGTTAACA: 0.0602
GGGCTCGA: 0.129
TCCTCGCA: 0.0282
ATCGCATG: -0.027
GATGCCAA: -0.158
TAGGAAGA: -0.252

Block 4 — target: CCNA1, cyclin fold, Cln2 fusion (human); method: yeast growth competition, sequencing; medium: yeast; notes: weak parent motif; relative to: not given; reading: higher = stronger binding; measurement: normalised enrichment score
Starting sequence: CDKN1B docking peptide (human); PSACRNLFGPVDH
L7F: 0.456
P10Q: 0.45
G9E: 0.34
S2Q: 0.255
L7I: 0.524
V11F: 0.272
P1L: 0.243
V11A: 0.22
D12V: 0.0931
H13W: 0.577
F8E: 0.0804
D12E: 0.352
R5M: 0.15
R5A L7A: -0.0838
S2V: 0.318
A3F: 0.484
A3D: 0.115
L7M: 0.38
F8Y: -0.0534

Block 5 — target: UBE2M UBC core domain (UniProt P61081); method: yeast two-hybrid; medium: yeast; notes: mostly zero background; relative to: not given; reading: higher = stronger interaction; measurement: lacZ reporter activity
B1: TRIM43 RING domain (UniProt Q96BQ3); chain FSHAFQKELTCVICLNYLVDPVTICCGHSFCRPCLCLSWEEAQSPANCPACREPSPKMDFKT
B2: DTX4 RING domain (UniProt Q9Y2E6); chain QKVRHPPDEDCTICMERLTAPSGYKGPQPTVKPDLVGKLSRCGHVYHIYCLVAMYNNGNKDGSLQCPTCKTIYGVKTGTQ
B3: TRIM4 RING domain (UniProt Q9C037); chain EAEDIQEELTCPICLDYFQDPVSIECGHNFCRGCLHRNWAPGGGPFPCPECRHPSAPAALRP
B4: SH3RF2 RING domain (UniProt Q8TEC5); chain DDLTLLDLLECPVCFEKLDVTAKVLPCQHTFCKPCLQRVFKAHKELRCPECRTPVFSNIEAL
B5: RNF208 RING domain (UniProt Q9H0X6); chain SSAAAGEPLECPTCGHSYNVTQRRPRVLSCLHSVCEQCLQILYESCPKYKFISCPTCRRETVLFTDYG
B6: NEURL1 RING domain (UniProt O76050); chain VTPGLGQWSDECTICYEHAVDTVIYTCGHMCLCYACGLRLKKALHACCPICRRPIKDIIKT
B7: VPS41 RING domain (UniProt P49754); chain KGVLVDEENICESCLSPILPSDAAKPFSVVVFHCRHMFHKECLPMPSMNSAAQFCNICSAKNRGPGSAI
B8: RNF111 RING domain (UniProt Q6ZNA4); chain EGTEEDTEEKCTICLSILEEGEDVRRLPCMHLFHQVCVDQWLITNKKCPICRVDIEAQLPSE
B9: TRIML1 RING domain (UniProt Q8N9V2); chain LMENLREELTCFICLDYFSSPVTTECGHSFCLVCLLRSWEEHNTPLSCPECWRTLEGPHFQS
B10: RNF38 RING domain (UniProt Q9H0F5); chain PNNHQSEQTLCVVCMCDFESRQLLRVLPCNHEFHAKCVDKWLKANRTCPICRADASEVHRDS
B11: TRIM40 RING domain (UniProt Q6P9F5); chain LQKDNQEEGVCPICQESLKEAVSTNCGHLFCRVCLTQHVEKASASGVFCCPLCRKPCSEEVLG
Construct (chain): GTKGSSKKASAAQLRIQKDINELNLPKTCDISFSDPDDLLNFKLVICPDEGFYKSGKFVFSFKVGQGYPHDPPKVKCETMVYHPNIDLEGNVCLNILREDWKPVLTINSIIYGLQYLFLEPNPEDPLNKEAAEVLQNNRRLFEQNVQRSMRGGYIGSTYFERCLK
B1 (TRIM43 RING domain): 0
B2 (DTX4 RING domain): 0
FQGDVDEDLICPICSGVLEEPVQAPHCEHAFCNACITQWFSQQQTCPVDRSVVTVAHLRP (RNF41 RING domain (UniProt Q9H4P4)): 0
B3 (TRIM4 RING domain): 0
B4 (SH3RF2 RING domain): 0
VEPSEENSKDCVVCQNGTVNWVLLPCRHTCLCDGCVKYFQQCPMCRQFVQESFALC (CGRRF1 RING domain (UniProt Q99675)): 0
B5 (RNF208 RING domain): 0
B6 (NEURL1 RING domain): 0
DHGAVGQEMCCPICCSEYVKGEVATELPCHHYFHKPCVSIWLQKSGTCPVCRCMFPPPL (PJA1 RING domain (UniProt Q8NG27)): 0
B7 (VPS41 RING domain): 0
ASLPTSEEDLCPICYAHPISAVFQPCGHKSCKACINQHLMNNKDCFFCKTTIVSVEDWE (RNF123 RING domain (UniProt Q5XPI4)): 0
PAELEVQASECVVCLEREAQMIFLNCGHVCCCQQCCQPLRTCPLCRQDIAQRLRIY (LRSAM1 RING domain (UniProt Q6UWE0)): 0
B8 (RNF111 RING domain): 0
B9 (TRIML1 RING domain): 0
B10 (RNF38 RING domain): 0
B11 (TRIM40 RING domain): 0

A few entries again (block 4):
G9E: 0.34
P10Q: 0.45
V11A: 0.22
R5A L7A: -0.0838
F8E: 0.0804
V11F: 0.272
S2Q: 0.255
L7I: 0.524
L7M: 0.38
D12V: 0.0931
R5M: 0.15
H13W: 0.577
